Measurements collected from several papers.
Compare with care: the assays were run in different laboratories. Several values in a cell are separate wells, animals, samples, runs or records. ± gives the spread as reported.

| Compound | assay | system | conditions | tissue uptake |
| --- | --- | --- | --- | --- |
| CCCC[C@H](NC(=O)CNC(=O)CNC(=O)[C@H](CCCCNC(=O)[C@H](CCN)NC(=O)C(C)c1ccc(CC(C)C)cc1)NC(=O)CN1CCN(CC(=O)O)CCN(CC(=O)O)CCN(CC(=O)O)CC1)C(=O)N[C@H]1CC(=O)NCCCC[C@@H](C(N)=O)NC(=O)[C@H](Cc2c[nH]c3ccccc23)NC(=O)[C@H](CCCNC(=N)N)NC(=O)[C@@H](Cc2ccccc2)NC(=O)[C@H](Cc2c[nH]cn2)NC1=O (stereo partly shown) [lutetium-177 labelled] |  | C57 mice, tumour-bearing, heart | 2 h | 0.44 ± 0.18 %ID/g |
| N#C[C@@H]1CCCN1C(=O)CNC(=O)c1ccnc2ccc(OCCCN3CCN(C(=O)CCc4ccc5c(c4)CN4CCN6CC(=O)[O][68Ga-]([O]C(=O)C4)([O]5)[O]c4ccc(CCC(=O)N5CCN(CCCOc7ccc8nccc(C(=O)NCC(=O)N9CCC[C@H]9C#N)c8c7)CC5)cc4C6)CC3)cc12 |  | BALB/c nude mice, U-87 MG xenograft, pancreas | 1 h, blocking, together with: DOTA-FAPI-04 40 nmol/mouse co-injected | 1.45 ± 0.98 %ID/g |
| O=C(O)CCCOc1ccc([18F])cc1-c1cc(-c2ccccc2C(F)(F)F)n(-c2ccccc2)n1 |  | mice, bladder and urine | intravenous, 360 min | 0.73 ± 0.24 %ID/g |
| COc1ccc2c(c1)C(C)(C)C(/C=C/C1=C(Oc3ccc(C(=O)NCCCCOc4cc(CN(Cc5ccccn5)Cc5ccccn5)cc(CN(Cc5ccccn5)Cc5ccccn5)c4)cc3)C(=C/C=C3/N(CCCCS(=O)(=O)[O-])c4ccc(OC)cc4C3(C)C)CCC1)=[N+]2CCCCS(=O)(=O)[O-].O=[N+]([O-])[O-].O=[N+]([O-])[O-].[99Tc+].[C-]#[O+].[C-]#[O+].[C-]#[O+].[Zn+2] |  | healthy BALB/c mice, blood | 12 h | 0.69 %ID/g and 0.46 %ID/g and 0.88 %ID/g and 0.45 %ID/g |
| COc1ccc(Nc2nc(Nc3ccc(OCCOCC[18F])cc3)ncc2Br)cc1 |  | ICR mice, S180 tumour-bearing, liver | intravenous, 370 kBq, 30 min | 2.59 ± 0.2 %ID/g |
| N#C[C@@H]1CCCN1C(=O)CNC(=O)c1ccnc2ccc(OCCCN3CCN(C(=O)CCc4ccc(O)c(CN5CCN6CC(=O)[O][Al-]([18F])([O]C(=O)C5)[O]c5ccc(CCC(=O)N7CCN(CCCOc8ccc9nccc(C(=O)NCC(=O)N%10CCC[C@H]%10C#N)c9c8)CC7)cc5C6)c4)CC3)cc12 (stereo partly shown) |  | BALB/c nude mice, U-87 MG xenograft, kidney | 1 h | 4.21 ± 0.77 %ID/g |
| Cc1cc(C)n(CCN(CCN)CCCCCCNC(=O)[C@@H](N)Cc2c[nH]cn2)n1.[99Tc+].[C-]#[O+].[C-]#[O+].[C-]#[O+] |  | BALB/c nude mice, MCF7 xenograft, liver | intravenous, 15 min | 27.1 ± 1.67 %IA/g |
| O=C(NCC1OC2CCC=CCCC2O1)c1ccc([18F])nc1 (stereo not shown) |  | healthy female BALB/c nude mice, bone | intravenous, 7.4 MBq per mouse, 10 min | 1.4 ± 0.5 %ID/g |
| CCCC[C@H](NC(=O)COCCOCCNC(=O)CN1CCN(CC(=O)O)CCN(CC(=O)O)CC1)C(=O)N[C@H]1CC(=O)NCCCC[C@@H](C(N)=O)NC(=O)[C@H](Cc2c[nH]c3ccccc23)NC(=O)[C@H](CCCNC(=N)N)NC(=O)[C@@H](Cc2ccccc2)NC(=O)[C@H](Cc2c[nH]cn2)NC1=O [fluorine-18 labelled] |  | C57 mice B16-F10 melanoma, liver | intravenous, 0.37 MBq, 0.5 h | 1.57 ± 0.28 %ID/g |
| O=C(NCC1OC2CCC=CCCC2O1)c1ccc(COCCOCCOCC[18F])cc1 (stereo not shown) |  | healthy female BALB/c nude mice, bone | intravenous, 7.4 MBq per mouse, 30 min | 1.5 ± 0.1 %ID/g |
| O=C([O-])CN1CCN(CC(=O)[O-])CCN(CC(=O)NC[C@H]2CC[C@H](C(=O)N[C@H](Cc3cnc4ccccc4c3)C(=O)NCCCC[C@H](NC(=O)N[C@@H](CCC(=O)O)C(=O)O)C(=O)O)CC2)CCN(CC(=O)[O-])CC1.[64Cu+2] | ex vivo gamma counting | 22Rv1 tumour-bearing mice, muscle | intravenous, 0.74 MBq, 2 h post-injection | 1.31 %ID/g |
| Cc1cc(C)n(CCN(CCN)CCCCCCNC(=O)[C@@H](N)Cc2c[nH]c3ccccc23)n1.[99Tc+].[C-]#[O+].[C-]#[O+].[C-]#[O+] |  | BALB/c nude mice, A549 xenograft, brain | intravenous, 15 min | 0.1 ± 0.03 %IA/g |
| CCCC[C@H](NC(=O)CNC(=O)CNC(=O)[C@H](CCCCNC(=O)[C@H](CC(=O)O)NC(=O)C(C)c1ccc(CC(C)C)cc1)NC(=O)CN1CCN(CC(=O)O)CCN(CC(=O)O)CCN(CC(=O)O)CC1)C(=O)N[C@H]1CC(=O)NCCCC[C@@H](C(N)=O)NC(=O)[C@H](Cc2c[nH]c3ccccc23)NC(=O)[C@H](CCCNC(=N)N)NC(=O)[C@@H](Cc2ccccc2)NC(=O)[C@H](Cc2c[nH]cn2)NC1=O (stereo partly shown) [lutetium-177 labelled] |  | C57 mice, tumour-bearing, bone | intravenous, 0.037 MBq, 4 h | 0.25 ± 0.08 %ID/g |
| CCCC[C@H](NC(=O)CCCCCCCNC(=O)CN1CCN(CC(=O)O)CCN(CC(=O)O)CC1)C(=O)N[C@H]1CC(=O)NCCCC[C@@H](C(N)=O)NC(=O)[C@H](Cc2c[nH]c3ccccc23)NC(=O)[C@H](CCCNC(=N)N)NC(=O)[C@@H](Cc2ccccc2)NC(=O)[C@H](Cc2c[nH]cn2)NC1=O [fluorine-18 labelled] |  | C57 mice B16-F10 melanoma, kidneys | intravenous, 0.37 MBq, 0.5 h | 15 ± 0.8 %ID/g |
| COc1ccc(Nc2nc(Nc3ccc(OCCOCCOCC[18F])cc3)ncc2Br)cc1 |  | ICR mice, S180 tumour-bearing, lung | intravenous, 370 kBq, 120 min | 3.53 ± 0.32 %ID/g |
| CC(C)C[C@H](NC(=O)[C@@H](CCCCNC(=O)[C@@H](Cc1ccccc1)NC(=O)CCCCCCCNC(=O)CN1CCN(CC(=O)O)CCN(CC(=O)O)CCN(CC(=O)O)CC1)NC(=O)[C@H](Cc1ccc(O)cc1)NC(=O)[C@H](CO)NC(=O)[C@H](Cc1c[nH]c2ccccc12)NC(=O)[C@H](Cc1c[nH]cn1)NC(=O)[C@@H]1CCC(=O)N1)C(=O)N[C@@H](CCCNC(=N)N)C(=O)N1CCC[C@H]1C(=O)NCC(N)=O [indium-111 labelled] | biodistribution | male athymic nude mice, DU-145 prostate cancer xenograft, liver | intravenous, 0.037 MBq, 0.5 h post-injection | 1.56 ± 0.22 %ID/g |

Repeated from above:
| Compound | assay | system | conditions | tissue uptake |
| --- | --- | --- | --- | --- |
| COc1ccc(Nc2nc(Nc3ccc(OCCOCCOCC[18F])cc3)ncc2Br)cc1 |  | ICR mice, S180 tumour-bearing, lung | intravenous, 370 kBq, 120 min | 3.53 ± 0.32 %ID/g |
